Assay results gathered from unrelated publications.
Numbers after ± are the reported error.
Organism: HIV-1

Compound | assay | system | conditions | EC50
COc1ccccc1NS(=O)(=O)c1ccc(N/N=C(\C)c2ccccc2Br)c([N+](=O)[O-])c1 | viral cytopathic effect, MTT | MT4, IIIB |  | 12000 nM
CCCC(=O)OCSc1ccccc1C(=O)NCCn1cc(C(=O)NCc2cccc(C)n2)c(=O)c2cc3c(cc21)OC(F)(F)O3 | viral replication | human PBMC, 92RW009 |  | 4260 ± 860 nM
CCN(CC)c1ccc(/C=C2\CCC(/C=N/N=C/c3cccnc3)=C2N2CCOCC2)cc1 | viral cytopathic effect, MTT | MT4, IIIB |  | > 20000 nM
CCCC(=O)OCSc1ccccc1C(=O)NCCn1ccc(=O)c2cc3c(cc21)OCO3 | virus-induced cytopathic effect, inhibitor, XTT | CEM-SS, RF | 6 days | 1150 ± 370 nM
Cc1ccc(N/N=C2\Sc3ccccc3C2=O)cc1 | viral cytopathic effect, MTT | MT4, IIIB |  | > 100000 nM
CCCC(=O)OCSc1ccccc1C(=O)NCCn1cc(C(=O)N2CCN(C)CC2)c(=O)c2cc3c(cc21)OCO3 | virus-induced cytopathic effect, inhibitor, XTT | CEM-SS, RF | 6 days | 75600 ± 14400 nM
COCC/N=c1/scc(-c2cccs2)n1/N=C/c1cc(Br)c(O)c(OC)c1 | viral cytopathic effect, MTT | MT4, IIIB |  | > 15000 nM
CCCC(C(=O)O)c1c(C)nc2ccc(Cl)cc2c1-c1ccccc1 (stereo not shown) | viral replication, item: Gag p24 | MT-4, NL4-3 | 7 days | 7010 ± 5410 nM
CCCC(=O)OCSc1ccccc1C(=O)NCCn1cc(C(=O)NCc2ccccn2)c(=O)c2cc3c(cc21)OCO3 | virus-induced cytopathic effect, inhibitor, XTT | CEM-SS, RF | 6 days | 540 ± 110 nM
N#C/C=C/c1ccc2c(S(=O)(=O)n3nc(Nc4ccc(C#N)c(Cl)c4)nc3N)cccc2c1 | viral replication | TZM-bl, IIIB wild type | 48 h | 1.78 ± 0.88 nM
Cc1ccnc2c1NC(=O)c1cccnc1N2C1CC1 | viral replication, MTT | MT4, IIIB wild type |  | 140 ± 70 nM
Cc1nn(C(C)c2nnc(Nc3ccn(Cc4ccccc4)n3)s2)c(C)c1Br (stereo not shown) | viral replication, luciferase reporter | TZM-bl, NL4-3 | 48 h | 60 ± 20 nM
Nc1ccn([C@@H]2CS[C@H](CO)O2)c(=O)n1 | viral replication, MTT | MT4, IIIB wild type |  | 690 ± 350 nM
CC/N=c1/scc(-c2ccc(Br)cc2)n1/N=C/c1ccc(O)c(O)c1O | viral cytopathic effect, MTT | MT4, IIIB |  | > 35000 nM
Cc1cc(C#N)cc(C)c1Oc1nc(Nc2ccc(C#N)cc2)nc(N)c1Br | viral replication, MTT | MT4, IIIB wild type |  | 4.2 ± 1.5 nM
Cc1nc(NCCCNc2ccnc3cc(Cl)ccc23)nc(-c2cccc([N+](=O)[O-])c2)c1C(=O)OC(C)C | viral replication | CCRF-CEM, IIIB |  | > 10000 nM
Cc1nnc(C(=O)NC(C)(C)c2nc(C(=O)NCc3ccc(F)cc3)c(O)c(=O)n2C)o1 | infectivity of progeny virus | HEK293FT, NL4-3 |  | > 1500 nM
CCCC(=O)OCSc1ccccc1C(=O)NCCn1cc(C(=O)NCc2ccncc2)c(=O)c2cc3c(cc21)OCO3 | virus-induced cytopathic effect, inhibitor, XTT | CEM-SS, RF | 6 days | 380 ± 490 nM
COc1ccccc1N1CCN(/N=C/c2ccc(Cl)c([N+](=O)[O-])c2)CC1 | viral cytopathic effect, MTT | MT4, IIIB |  | > 100000 nM
CCCC(=O)OCSc1ccccc1C(=O)NCCn1cc(C(=O)NCc2nc(-c3ccccn3)no2)c(=O)c2cc3c(cc21)OCO3 | virus-induced cytopathic effect, inhibitor, XTT | CEM-SS, RF | 6 days | 1510 ± 270 nM
CCOc1cccc(/C=N/NC(=O)c2n[nH]c3c2CCC3)c1O | viral cytopathic effect, MTT | MT4, IIIB |  | > 4000 nM
CCc1cc(F)c(Cc2cnc(Nc3ccc(C#N)c(Cl)c3)o2)c(F)c1 | protection from cytopathicity | MT2 cells, IIIB wild type |  | 1.3 nM

Repeated from above:
Compound | assay | system | conditions | EC50
COc1ccccc1N1CCN(/N=C/c2ccc(Cl)c([N+](=O)[O-])c2)CC1 | viral cytopathic effect, MTT | MT4, IIIB |  | > 100000 nM
CCCC(=O)OCSc1ccccc1C(=O)NCCn1cc(C(=O)NCc2ccncc2)c(=O)c2cc3c(cc21)OCO3 | virus-induced cytopathic effect, inhibitor, XTT | CEM-SS, RF | 6 days | 380 ± 490 nM
CCCC(=O)OCSc1ccccc1C(=O)NCCn1ccc(=O)c2cc3c(cc21)OCO3 | virus-induced cytopathic effect, inhibitor, XTT | CEM-SS, RF | 6 days | 1150 ± 370 nM
CCCC(=O)OCSc1ccccc1C(=O)NCCn1cc(C(=O)NCc2ccccn2)c(=O)c2cc3c(cc21)OCO3 | virus-induced cytopathic effect, inhibitor, XTT | CEM-SS, RF | 6 days | 540 ± 110 nM
